# Measurements from different studies.
# Protocols differ between the studies behind these lines.
# Cell line: HT-29
SMILES,read-out,technique,time,IC50 [µM]
CC(C)c1ccc(N(C)c2ccc3c(c2)OCC[C@H]3CNc2cnccc2C(=O)O)cc1,cell growth or viability,MTS,7 days,0.0235
CCCCCCCCCC(=O)Oc1c(C)c(OC)c2c(c1C)OC(=O)C(CCCCCCCC)C2(O)C=Cc1ccccc1 (stereo not shown),cell growth or viability,SRB,72 h,> 50
CNS(=O)(=O)Nc1nccc(Cc2c(C)c3ccc(Oc4ncccc4F)cc3oc2=O)c1F,cell viability,,7 days,0.00682
CO[C@@H](C[C@H]1C(C)=CC[C@@H]2[C@]3(C)C[C@H](O[C@@H]4O[C@@H](C)[C@H](OC(=O)c5cccc(O)c5)[C@@H](O[C@@H]5O[C@H](CO)[C@@H](O)[C@H](O)[C@H]5NC(C)=O)[C@H]4O)[C@@H](O)C(C)(C)[C@H]3CC[C@]21C)[C@H](N)C(=O)O,cell growth or viability,CCK-8,72 h,6.19
CCCCCC(=O)Oc1c(C)c(OC)c2c(c1C)OC(=O)[C@@H](CCCC)[C@]2(O)/C=C/c1ccccc1 (relative stereo),cell growth or viability,SRB,72 h,> 50
Cc1ccc([N+](=O)[O-])cc1S(=O)(=O)N(C)/N=C/c1cnc2ccc(Br)cn12,cell viability,MTS,,0.087
O=C([O-])CC(=O)[O-].[W+4].c1cc[cH-]c1.c1cc[cH-]c1,cell growth or viability,MTT,,790
COc1cc(-n2cc3cc(F)cc(C(N)=O)c3n2)cc(Cl)c1C1CC(O)(CCO)Cc2ccccc21 (stereo not shown),cell growth or viability,MTT,72 h,0.13
CCCCCCCCCCCC(=O)Oc1c(C)c(OC)c2c(c1C)OC(=O)[C@@H](CCCCCCCCCC)[C@]2(O)/C=C/c1ccccc1 (relative stereo),cell growth or viability,SRB,72 h,> 50
c1ccc2c(Cc3[nH]c4ccccc4c3Cc3c[nH]c4ccccc34)c[nH]c2c1,cell growth or viability,ATP luminescence,24 h,19
CCCCCCCCCCCC(=O)Oc1c(C)c(OC)c2c(/C=C/c3ccccc3)c(CCCCCCCCCC)c(=O)oc2c1C,cell growth or viability,SRB,72 h,> 50
CO[C@@H](C[C@H]1C(C)=CC[C@@H]2[C@]3(C)C[C@H](O[C@@H]4O[C@@H](C)[C@H](O)[C@@H](O)[C@H]4O)[C@@H](O)C(C)(C)[C@H]3CC[C@]21C)[C@H](N)C(=O)O,cell growth or viability,CCK-8,72 h,> 10
CCc1occc(=O)c1[O-].[Cl-].[W+4].c1cc[cH-]c1.c1cc[cH-]c1,cell growth or viability,MTT,,350

# A few entries again:
SMILES,read-out,technique,time,IC50 [µM]
CCCCCC(=O)Oc1c(C)c(OC)c2c(c1C)OC(=O)[C@@H](CCCC)[C@]2(O)/C=C/c1ccccc1 (relative stereo),cell growth or viability,SRB,72 h,> 50
Cc1ccc([N+](=O)[O-])cc1S(=O)(=O)N(C)/N=C/c1cnc2ccc(Br)cn12,cell viability,MTS,,0.087
